# Experimental data pooled from the literature.
# Each numbered part is a random draw from the data of one study; scales do not carry over between parts. “And” joins repeats or separate records; there may be more than shown.
# UniProt Q9NWZ3, sequence (whole entry, looked up): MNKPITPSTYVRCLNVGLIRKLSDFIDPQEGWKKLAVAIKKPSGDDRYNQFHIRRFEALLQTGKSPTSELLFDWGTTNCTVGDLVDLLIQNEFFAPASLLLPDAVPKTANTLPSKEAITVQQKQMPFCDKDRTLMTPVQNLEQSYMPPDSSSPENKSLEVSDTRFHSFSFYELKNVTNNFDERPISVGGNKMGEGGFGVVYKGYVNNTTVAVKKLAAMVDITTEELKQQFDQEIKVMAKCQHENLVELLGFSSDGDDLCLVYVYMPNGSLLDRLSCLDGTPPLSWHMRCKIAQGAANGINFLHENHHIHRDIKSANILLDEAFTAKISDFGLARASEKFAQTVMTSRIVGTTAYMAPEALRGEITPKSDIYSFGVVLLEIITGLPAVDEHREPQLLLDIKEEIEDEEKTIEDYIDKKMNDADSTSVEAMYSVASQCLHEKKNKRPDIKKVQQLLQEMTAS
# UniProt Q06187, sequence (whole entry, looked up): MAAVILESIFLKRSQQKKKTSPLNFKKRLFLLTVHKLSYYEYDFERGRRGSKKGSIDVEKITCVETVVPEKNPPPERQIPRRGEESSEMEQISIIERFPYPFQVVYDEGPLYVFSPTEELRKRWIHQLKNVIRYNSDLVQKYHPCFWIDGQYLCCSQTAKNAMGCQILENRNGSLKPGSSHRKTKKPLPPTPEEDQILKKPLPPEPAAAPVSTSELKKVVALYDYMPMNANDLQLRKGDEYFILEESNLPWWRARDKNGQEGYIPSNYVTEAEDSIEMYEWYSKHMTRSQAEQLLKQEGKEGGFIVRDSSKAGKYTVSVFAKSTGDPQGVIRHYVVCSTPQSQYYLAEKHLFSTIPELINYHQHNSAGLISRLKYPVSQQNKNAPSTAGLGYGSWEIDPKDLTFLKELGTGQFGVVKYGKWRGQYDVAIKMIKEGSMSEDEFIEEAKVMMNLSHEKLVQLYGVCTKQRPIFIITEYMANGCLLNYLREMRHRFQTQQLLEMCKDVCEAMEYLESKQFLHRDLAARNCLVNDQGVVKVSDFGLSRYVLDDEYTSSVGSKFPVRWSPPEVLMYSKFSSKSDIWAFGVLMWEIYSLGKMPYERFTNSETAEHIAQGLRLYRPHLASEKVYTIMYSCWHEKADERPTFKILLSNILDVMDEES
# UniProt Q9NYY3, sequence (whole entry, looked up): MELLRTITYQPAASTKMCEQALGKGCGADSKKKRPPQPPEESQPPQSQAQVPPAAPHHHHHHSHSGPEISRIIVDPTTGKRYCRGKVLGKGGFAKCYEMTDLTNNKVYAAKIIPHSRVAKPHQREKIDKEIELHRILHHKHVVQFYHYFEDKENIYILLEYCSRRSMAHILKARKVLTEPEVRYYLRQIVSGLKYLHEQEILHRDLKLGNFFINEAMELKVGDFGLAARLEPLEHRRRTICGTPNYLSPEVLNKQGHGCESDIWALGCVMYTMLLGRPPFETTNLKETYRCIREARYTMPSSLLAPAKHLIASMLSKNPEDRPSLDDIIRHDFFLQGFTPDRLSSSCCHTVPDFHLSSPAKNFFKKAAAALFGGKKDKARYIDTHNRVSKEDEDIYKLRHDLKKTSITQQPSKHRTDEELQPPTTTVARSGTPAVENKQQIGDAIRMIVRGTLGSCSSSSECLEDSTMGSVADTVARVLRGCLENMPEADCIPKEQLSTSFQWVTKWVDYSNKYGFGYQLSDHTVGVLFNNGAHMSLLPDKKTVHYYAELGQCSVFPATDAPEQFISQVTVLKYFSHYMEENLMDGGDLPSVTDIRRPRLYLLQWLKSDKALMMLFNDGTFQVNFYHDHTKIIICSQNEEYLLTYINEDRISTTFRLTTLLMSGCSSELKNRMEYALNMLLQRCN
# UniProt Q12851, sequence (whole entry, looked up): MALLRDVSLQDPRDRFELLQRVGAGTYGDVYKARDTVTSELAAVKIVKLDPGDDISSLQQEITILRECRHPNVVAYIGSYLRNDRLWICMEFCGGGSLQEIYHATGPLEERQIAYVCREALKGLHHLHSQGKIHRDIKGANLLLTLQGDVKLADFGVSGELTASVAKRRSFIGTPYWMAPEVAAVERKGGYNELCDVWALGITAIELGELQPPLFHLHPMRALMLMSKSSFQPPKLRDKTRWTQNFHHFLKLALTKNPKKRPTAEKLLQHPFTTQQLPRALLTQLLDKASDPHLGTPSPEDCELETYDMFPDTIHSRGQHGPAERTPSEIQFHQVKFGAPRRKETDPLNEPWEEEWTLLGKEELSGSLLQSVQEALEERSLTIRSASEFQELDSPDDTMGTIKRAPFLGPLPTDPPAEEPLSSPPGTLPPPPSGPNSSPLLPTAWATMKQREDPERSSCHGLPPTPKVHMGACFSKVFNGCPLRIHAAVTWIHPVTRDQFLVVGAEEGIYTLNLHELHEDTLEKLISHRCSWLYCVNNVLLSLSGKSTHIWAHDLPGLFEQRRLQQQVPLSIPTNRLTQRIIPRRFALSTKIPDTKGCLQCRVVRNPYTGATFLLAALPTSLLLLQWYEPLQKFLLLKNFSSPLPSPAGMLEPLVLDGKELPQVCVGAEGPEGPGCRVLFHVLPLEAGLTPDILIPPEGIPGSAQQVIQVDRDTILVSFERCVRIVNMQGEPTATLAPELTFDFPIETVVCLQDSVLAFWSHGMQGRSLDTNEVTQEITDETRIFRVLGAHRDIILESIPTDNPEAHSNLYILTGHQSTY
# UniProt P07948, sequence (whole entry, looked up): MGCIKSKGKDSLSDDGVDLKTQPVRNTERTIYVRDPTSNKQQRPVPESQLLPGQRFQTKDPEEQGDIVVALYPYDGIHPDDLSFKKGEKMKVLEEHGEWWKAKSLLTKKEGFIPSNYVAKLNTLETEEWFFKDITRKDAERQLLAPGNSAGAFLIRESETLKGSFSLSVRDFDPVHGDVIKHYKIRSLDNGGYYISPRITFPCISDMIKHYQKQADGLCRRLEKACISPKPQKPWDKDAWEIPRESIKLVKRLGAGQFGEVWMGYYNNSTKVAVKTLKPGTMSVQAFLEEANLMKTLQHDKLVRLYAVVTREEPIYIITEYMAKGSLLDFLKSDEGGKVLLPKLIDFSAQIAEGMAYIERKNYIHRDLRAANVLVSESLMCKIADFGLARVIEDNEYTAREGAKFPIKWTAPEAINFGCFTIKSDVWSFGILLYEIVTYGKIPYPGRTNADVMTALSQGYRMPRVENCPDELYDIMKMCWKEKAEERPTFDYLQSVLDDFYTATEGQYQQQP
# UniProt Q9Y243, sequence (whole entry, looked up): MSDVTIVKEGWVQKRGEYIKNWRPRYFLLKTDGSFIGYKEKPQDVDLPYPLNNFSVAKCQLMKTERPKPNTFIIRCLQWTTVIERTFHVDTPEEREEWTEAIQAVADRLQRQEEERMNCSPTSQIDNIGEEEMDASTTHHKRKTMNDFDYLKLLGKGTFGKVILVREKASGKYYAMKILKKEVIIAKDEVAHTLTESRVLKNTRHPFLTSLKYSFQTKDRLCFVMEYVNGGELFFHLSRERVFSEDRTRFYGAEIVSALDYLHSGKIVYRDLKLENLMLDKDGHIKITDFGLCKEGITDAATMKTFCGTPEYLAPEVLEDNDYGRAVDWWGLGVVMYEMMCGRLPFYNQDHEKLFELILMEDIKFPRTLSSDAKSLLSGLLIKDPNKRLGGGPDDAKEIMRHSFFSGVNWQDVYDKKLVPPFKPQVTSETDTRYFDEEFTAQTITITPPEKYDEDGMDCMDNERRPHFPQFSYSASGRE
# UniProt O14757, sequence (whole entry, looked up): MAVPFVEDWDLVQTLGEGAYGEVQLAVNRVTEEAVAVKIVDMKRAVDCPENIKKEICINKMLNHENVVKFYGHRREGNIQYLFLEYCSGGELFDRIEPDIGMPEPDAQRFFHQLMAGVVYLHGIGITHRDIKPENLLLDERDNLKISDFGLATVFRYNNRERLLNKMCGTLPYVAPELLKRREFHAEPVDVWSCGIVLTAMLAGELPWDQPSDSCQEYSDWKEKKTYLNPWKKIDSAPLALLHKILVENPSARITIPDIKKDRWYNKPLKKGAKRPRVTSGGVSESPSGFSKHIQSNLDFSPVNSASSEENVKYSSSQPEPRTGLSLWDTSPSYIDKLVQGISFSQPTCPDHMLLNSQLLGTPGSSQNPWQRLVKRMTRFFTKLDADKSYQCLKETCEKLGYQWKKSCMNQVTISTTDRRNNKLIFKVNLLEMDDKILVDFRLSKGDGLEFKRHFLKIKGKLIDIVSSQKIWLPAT
# UniProt O15264, sequence (whole entry, looked up): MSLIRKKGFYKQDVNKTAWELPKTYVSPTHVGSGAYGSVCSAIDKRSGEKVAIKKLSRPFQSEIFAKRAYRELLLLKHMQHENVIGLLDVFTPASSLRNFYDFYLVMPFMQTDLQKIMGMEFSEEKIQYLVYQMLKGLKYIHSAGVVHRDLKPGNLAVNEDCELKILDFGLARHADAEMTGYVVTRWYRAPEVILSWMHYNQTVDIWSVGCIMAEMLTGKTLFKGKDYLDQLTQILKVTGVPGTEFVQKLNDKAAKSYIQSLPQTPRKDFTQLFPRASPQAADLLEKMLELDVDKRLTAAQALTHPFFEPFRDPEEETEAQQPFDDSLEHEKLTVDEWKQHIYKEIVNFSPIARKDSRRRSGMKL
# UniProt P68400, sequence (whole entry, looked up): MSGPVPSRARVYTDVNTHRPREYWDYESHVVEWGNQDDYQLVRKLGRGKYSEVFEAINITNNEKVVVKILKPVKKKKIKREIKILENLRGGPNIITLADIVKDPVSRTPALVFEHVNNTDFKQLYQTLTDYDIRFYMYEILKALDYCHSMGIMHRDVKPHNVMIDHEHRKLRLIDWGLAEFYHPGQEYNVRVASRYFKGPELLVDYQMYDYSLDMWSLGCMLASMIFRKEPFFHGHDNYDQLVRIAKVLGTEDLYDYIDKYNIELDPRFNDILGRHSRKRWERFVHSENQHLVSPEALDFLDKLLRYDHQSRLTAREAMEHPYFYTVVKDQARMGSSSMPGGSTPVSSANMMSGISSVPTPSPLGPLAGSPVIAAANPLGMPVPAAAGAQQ

# Set 1 — cell line: mouse MPNST tumor cells; method: high-content nuclear imaging; refers to: cell number; tested at: 10 µM; time: 12 h; setting: mean of 2 replicates; baseline: plate mean; reading: higher = more cells
SMILES,nuclei count
CCCCOc1c(C(=O)c2c(F)cc(C)cc2F)c[nH]c2nncc1-2,-1.26 z-score
O=C(Nc1ccncc1)c1cc([N+](=O)[O-])ccc1Cl,-2.6 z-score
N=C(N)NC(=O)c1cnn(-c2cccc3ncccc23)c1C1CC1,0.211 z-score
CCCCCCNC(=O)n1cc(F)c(=O)[nH]c1=O,-2.81 z-score
CC(=O)[C@H]1CC[C@H]2[C@@H]3CCC4=CC(=O)CC[C@]4(C)[C@H]3CC[C@]12C,2.53 z-score
Clc1ccc(Nc2nnc(Cc3ccncc3)c3ccccc23)cc1,3.18 z-score and 3.89 z-score
CCCS(=O)(=O)c1nc(NC2CC2)cc(-c2ccc3c(ccn3C3CC(C)(C)NC(C)(C)C3)c2)n1,-6.28 z-score
CCN(CCCCOC(=O)c1ccc(OC)c(OC)c1)C(C)Cc1ccc(OC)cc1 (stereo not drawn),3.47 z-score
CC(=O)Nc1cccc(Nc2ncnc(N3CCC(OCc4ccc(OC(F)(F)F)cc4)CC3)n2)c1C,1.58 z-score
O=C(c1ccc(F)cc1)C1CCN(CCn2c(=S)[nH]c3ccccc3c2=O)CC1,1.56 z-score
NC(=O)c1cccc(-c2cc(Nc3ccc(OC(F)(F)F)cc3)ncn2)c1,5.01 z-score
COC(=O)[C@@H]1[C@H]2C[C@H]3c4[nH]c5ccccc5c4CCN3C[C@@H]2CC[C@@H]1O,0.755 z-score

# Set 2 — cell line: normal organoid sample D; method: CellTiter-Glo; host: human; matrix: normal-adjacent epithelium; tested at: 1 µM; baseline: DMSO
SMILES,viability
Cc1ccc2[nH]c(CNCCCc3ccncc3)cc(=O)c2c1,101% and 105%
O=c1nc(-c2ccccn2)sc2ccccc12,130% and 103%
O=C(O)c1cc(-c2ccc(C3CCNCC3)cc2)c2ccc(-c3ccc(C(F)(F)F)cc3)cc2c1,134% and 105%
c1ccc(N2CCN(Cc3nc4ccccc4[nH]3)CC2)nc1,101% and 105%
C[C@H](NC(=O)Nc1cc2[nH]ncc2c(CO)n1)c1ccccn1,104% and 79.5%
Cc1nc(N2CC[C@@H](O)C2)ncc1-c1cc(C(F)(F)F)cc2[nH]ncc12,100% and 78.2%
Cc1cnc(-c2cc(Cl)ccc2F)cc1-n1c(=O)n(CC(N)=O)c2cnccc21,107% and 130%
CO[C@@H](C)c1c(Nc2ccc([C@H](N(C)C(=O)C3CCS(=O)(=O)CC3)C(F)(F)F)cc2)cnc2cc(Cl)nn12,80.1% and 87.4%
CC(=O)C1=C(C)N(c2cccc(C(F)(F)F)c2)C(=O)N[C@H]1c1ccc(C#N)nc1,105% and 99%
Cn1cc(Cl)c2c(Oc3c(F)cc(Nc4cc(Cl)nc(N)n4)cc3F)ccnc21,105% and 96.6%
Cc1c(Oc2ccc(F)cc2)c(OC(C)C)nn1-c1ccc(C2CC2)cn1,110% and 87.4%
Cc1ccc2nc(CNCCCOc3ccccc3)cc(O)c2c1,144% and 111%

# Set 3 — read-out: enzyme activity; action: inhibitor; tested at: 0.5 µM; baseline: control
# Structure (SMILES): Nc1[nH]nc2nnc(-c3c(-c4ccccc4)nn4ccccc34)cc12
target,remaining activity [%]
"MAP3K10 (Homo sapiens, UniProt Q02779)",90.7
"CSNK2A1 (Homo sapiens, UniProt P68400)",94.8
"PRKCD (Homo sapiens, UniProt Q05655)",31.2
"NEK4 (Homo sapiens, UniProt P51957)",88.4
"MAPK13 (Homo sapiens, UniProt O15264)",101
"LRRK2 (Homo sapiens, UniProt Q5S007)",91.8
"LYN (Homo sapiens, UniProt P07948)",94.9
"AKT3 (Homo sapiens, UniProt Q9Y243)",97.5
"IRAK4 (Homo sapiens, UniProt Q9NWZ3)",99.7
"CSNK1A1 (Homo sapiens, UniProt P48729)",100
"MAPK12 (Homo sapiens, UniProt P53778)",104
"WNK2 (Homo sapiens, UniProt Q9Y3S1)",111
"BTK (Homo sapiens, UniProt Q06187)",93.6
"MKNK2 (Homo sapiens, UniProt Q9HBH9)",98.3
"PRKCI (Homo sapiens, UniProt P41743)",98.3
"PRKG1 (Homo sapiens, UniProt Q13976)",93.6
"EPHA5 (Homo sapiens, UniProt P54756)",101
"PLK2 (Homo sapiens, UniProt Q9NYY3)",107
"MAP2K6 (Homo sapiens, UniProt P52564)",90.9
"KIT (Homo sapiens, UniProt P10721)",97.1
"CHEK1 (Homo sapiens, UniProt O14757)",103
"MAP4K2 (Homo sapiens, UniProt Q12851)",98.6
"Cyclin-dependent kinase 9, with cyclin T1 (CDK9, Homo sapiens, UniProt P50750)",97.3

# Further values, each from its own experiment
SMILES,target,action,method,cells,tested at,quantity,value
O=C1CCC(N2Cc3c(ccc4c3OCC43CCC(Cc4ccccc4)CC3)C2=O)C(=O)N1 (stereo not drawn),"CRBN/Zinc finger protein Helios (Homo sapiens, UniProt Q96SW2+Q9UKS7)",degrader,HiBiT,HEK293,0.1694 nM,protein remaining,104%

# A few entries again (set 3):
target,remaining activity [%]
"WNK2 (Homo sapiens, UniProt Q9Y3S1)",111
"BTK (Homo sapiens, UniProt Q06187)",93.6
"MKNK2 (Homo sapiens, UniProt Q9HBH9)",98.3
